Experimental data gathered from unrelated publications.
Each numbered part is a random draw from the data of one study; scales do not carry over between parts.

Sample 1
Target: Histone acetyltransferase KAT6A, winged helix 1, GST fusion (KAT6A, Homo sapiens, UniProt Q92794, residues 1-85)
Technique: protein binding microarray
Form: double-stranded DNA, one strand shown
Sample: in vitro
Tested at: not given
Notes: 8-mer, flanks averaged, mean of 2 arrays, mostly near background
Reference: not given
Reading: higher = stronger binding
Residues (chain): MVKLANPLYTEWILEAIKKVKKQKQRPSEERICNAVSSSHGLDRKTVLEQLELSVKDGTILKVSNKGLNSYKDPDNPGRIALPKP
Sequence	E-score
AGTCAGTG	-0.227
ACCGAATA	-0.202
AGCCTACC	-0.0908
AGGAACAC	-0.088
GGGGAGCA	0.0385
CTCGACCA	-0.144
GATTGCTA	-0.157
CAAATGCC	0.00303
AGTCCTAT	-0.124
GGGGTGGA	-0.0891
CATGGGAA	-0.178

Sample 2
Target: UBE2L3 UBC core domain (UniProt P68036)
Chain of UniProt P68036 (whole entry, looked up): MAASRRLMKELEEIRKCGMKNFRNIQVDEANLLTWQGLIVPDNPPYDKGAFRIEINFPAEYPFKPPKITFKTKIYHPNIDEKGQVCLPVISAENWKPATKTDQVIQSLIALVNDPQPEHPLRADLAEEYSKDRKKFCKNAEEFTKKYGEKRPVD
Technique: yeast two-hybrid
Sample: yeast
Notes: mostly zero background
Reference: not given
Reading: higher = stronger interaction
B1: ANKIB1 RING domain (UniProt Q9P2G1); chain LSPGDLDTSLCDICMCSISVFEDPVDMPCGHDFCRGCWESFLNLKIQEGEAHNIFCPAYDCFQLVPVDIIE
B2: MSL2 RING domain (UniProt Q9HCI7); chain LLPYFRQSLSCCVCGHLLQDPIAPTNSTCQHYVCKTCKGKKMMMKPSCSWCKDYEQFEENKQ
B3: TRIM15 RING domain (UniProt Q9C019); chain SLKVVHELPACTLCAGPLEDAVTIPCGHTFCRLCLPALSQMGAQSSGKILLCPLCQEEEQAETPMA
B4: RNF149 RING domain (UniProt Q8NC42); chain EKGIDVDAENCAVCIENFKVKDIIRILPCKHIFHRICIDPWLLDHRTCPMCKLDVIKALGYW
Sequence	lacZ reporter activity
KIKDLNEHIVCCLCAGYFVDATTITECLHTFCKSCIVKYLQTSKYCPMCNIKIHETQPLL (PCGF1 RING domain (UniProt Q9BSM1))	0
B1 (ANKIB1 RING domain)	0
ISNDSETLEECMVCSDMKRDTLFGPCGHIATCSLCSPRVKKCLICKEQVQSRTKIE (MIB1 RING domain (UniProt Q86YT6))	0
QLQDEEDDSLCRICMDAVIDCVLLECGHMVTCTKCGKRMSECPICRQYVVRAVHVF (RNF34 RING domain (UniProt Q969K3))	0
FLKKLEQSFMCVCCQELVYQPVTTECFHNVCKDCLQRSFKAQVFSCPACRHDLGQNYIMI (UHRF2 RING domain (UniProt Q96PU4))	0
B2 (MSL2 RING domain)	0
B3 (TRIM15 RING domain)	0
MANWVFCNRCFQPPHRTSCFSLTNCGHVYCDACLGKGKKNECLICKAPCRTVLLSK (RNF212 RING domain (UniProt Q495C1))	0
B4 (RNF149 RING domain)	0

Sample 3
Target: PABPC1L2, full length, GST fusion (mouse, UniProt A0ABA7IW68)
Technique: RNAcompete
Form: RNA
Sample: in vitro
Tested at: 20 nM
Notes: 7-mer, probes averaged, single round
Reference: mean of 7-mers
Reading: higher = stronger binding
Residues (chain): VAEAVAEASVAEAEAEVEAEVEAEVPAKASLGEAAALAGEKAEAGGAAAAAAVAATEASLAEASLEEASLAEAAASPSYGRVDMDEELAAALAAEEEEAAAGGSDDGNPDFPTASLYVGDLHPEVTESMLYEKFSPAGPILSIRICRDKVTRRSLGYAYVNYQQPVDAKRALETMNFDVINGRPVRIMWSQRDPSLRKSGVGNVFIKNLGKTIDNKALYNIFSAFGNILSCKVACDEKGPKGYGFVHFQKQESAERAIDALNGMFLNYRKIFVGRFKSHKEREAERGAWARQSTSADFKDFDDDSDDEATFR
Sequence	7-mer Z-score
UUUACAG	-0.0899
ACGACAG	0.138
CACGCGU	-0.0681
GGCCGGA	0.363
CCCGAGA	-0.179
CCGCGUU	-0.4
AGAAGCA	0.0152
GCCAAAC	0.274
CAACGUU	-0.405
AGGGUAC	0.0768
CAUGAGG	0.113
UCUCCAG	-0.306

Sample 4
Target: RING finger protein unkempt homolog, zinc fingers 1-6, GST-SBP tag (UNK, Homo sapiens, UniProt Q9C0B0, residues 30-357)
Technique: RNA Bind-n-Seq
Form: RNA
Sample: in vitro
Tested at: not given
Notes: RNA with constant flanks, ends assumed
Reference: input RNA pool
Reading: higher = stronger binding
Shared flanks, not repeated: GGGAGUUCUACAGUCCGACGAUC … CAACAGAGGAUUGAGCAUCA
Target sequence (chain): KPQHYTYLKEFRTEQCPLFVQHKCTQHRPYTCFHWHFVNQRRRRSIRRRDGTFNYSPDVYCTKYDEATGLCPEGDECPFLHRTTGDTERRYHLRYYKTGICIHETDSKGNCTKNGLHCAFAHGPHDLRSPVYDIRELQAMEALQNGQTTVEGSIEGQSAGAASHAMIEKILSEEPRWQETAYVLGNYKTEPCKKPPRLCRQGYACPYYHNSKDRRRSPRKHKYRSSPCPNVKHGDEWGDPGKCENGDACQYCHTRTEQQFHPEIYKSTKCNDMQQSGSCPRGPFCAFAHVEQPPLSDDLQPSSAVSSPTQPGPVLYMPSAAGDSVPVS
Sequence	bound/input enrichment [ratio]
CAUCCAUUAUCUAUCUCCAUUUUCCAUUAUGGUACCUCUCAGAAGAGUGAGAGAGAGCUAUCCGAGAUUGUGAAGAAGAAUUUCGAUCUCCGCCCUGGGGUCAUUGUCAGGGAUCUGGAU	0.148
GCACAGAUUCAUCAAUUCAGAGAGGAUUCAUUGGAUAGCGUUCUUUUUUUAAAGAAGAUUGACCGAUGCUGGCAAAACCAUUGCAGACAAAUGAUCAUGAUCAGGAGCAUUUUUUUGUUU	0.24
GACAAAGAGGCUCUGACAGAGGAGAAGUGCCUCCCACGUCAGAACCGUUACGAUGGGCAGGCCGCUGUAUUUGGGUCAGACUUUCAGGAGAAGCUGAGCAAGCAAAAGUACUUCCUGGUG	0.0564
CACACAAGUAUGAAGUUUCUUUCAGGUGUAAAUAAUGAAAAAUAAAUGCCUCAUAAAUGACCGUACAAUGUAACUAUCAAAGUUUUAUAAUUCAUUAUGAGUUAACCAUUUUAAUGUUUC	0.225
CUGAGAAUCUAUCUUGAUGAAAGGAGAGAUGUCUUGGAUGACCUUGUAACAUUGCAUAAUUUCCGAAAUCAGUUCUUGCCAAAUGCACUGAGAGAAUUUUUUCGUCAUAUCCAUGCCCCU	0.157
UUGUUGGGAUCUAGGCUUCCUUACUUCUGGAGAAGUGGCCAUCCAACACCCACCUGUGCCACCGAGGGACAGGGCCUCCACAGCUGCCUCUGCUGCUUGUCCUGUCCCCUCAUACCAGAG	0.136
UCCAAGUUACAAAAGUUUGAGGUGCAGAGGGAAGGCCAGAUUUUUUUUUUAAUGAAAUUAUACCGAUCCGAUCUCAGUAUUUAAACUGUUCCUCAAUUUUGUGAGGCUGUGUUGGAAAUA	0.86
UUACAGAUGCAUGGAAAACAAAGUCUCCAAGAAAACACUUCUGUCUUGAUGGUCUAUGGAAACCGACCUUGAAAAUAAGGUGUCUACAAGGUGUUUUGUGGUUUCUGUAUUUCUUCUUUU	0.103

Sample 5
Target: RNA binding protein fox-1 homolog 2, RRM domain, GST-SBP tag (RBFOX2, Homo sapiens, UniProt O43251-10, residues 100-194)
Technique: RNA Bind-n-Seq
Form: RNA
Sample: in vitro
Tested at: 365 nM
Notes: natural RNA segment, single round, ends assumed
Reference: no-protein control
Reading: higher = stronger binding
Shared flanks, not repeated: GGGAGUUCUACAGUCCGACGAUC … UGGAAUUCUCGGGUGCCAA
Residues (chain): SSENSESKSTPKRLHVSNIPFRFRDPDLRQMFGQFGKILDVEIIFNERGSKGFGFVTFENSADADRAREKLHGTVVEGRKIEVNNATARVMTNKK
Sequence	RBNS enrichment (R)
AUAGACAAUCCAAAGUCUCCCCUUCUGUUGCCGUCAUCUUGUUUAAUCAACCAUUUUUCAAGGCACUCGAUCAGUGUUGCAGCAUAACAGAAAGUACAGCUACUGUGCCU	0.818
AGACAUCACAUACCUUCAGCACUUCUCACAAUGUAACUGCUUUAGUCAUAUUAACCUGAAGUUGCAGUUUAGACACAUGUUGUUGGGGUGUCUUUCUGGUGCCCAAACUU	0.264
CCCAUCUUUCCCUGCAAGGCCACACCGUGCAUUUACAGCAGUGUGGCAAGGUGUAGGAGGGACCUUGAACCUGGCUGGCCAGGGCAGCAGCAGGAGUAGGUAGAGCUGUU	0.815
CAGUGCUGGGAGCCAAAAAACUGUUGACGGUUUUUUGUGCAGCUCAAGAAAACUUUGAAAAGAACAUGCUUUAACUGAAGCAUUGGACUCUGCAGCUUUCUGUGUAAGGC	0.341
GACCUGAAGGCUGCCAACACUCCUCUAAGGACACUGGGUCACAUGCCAGCCACCUGUUCUCGCCACCGGCCACCACGUGCCGGGCCGCCAUCGGAGGUGCCUGAAGAGCU	0.345
GAUCUUUGAACUCCUGAGUACAGACUGCGGGUGUGUGCUACCAUGCUUUAUGUGGCCCUGGGUUCAAACACAGCCCUUCAUAUGUAUAUAGCCAAACACUCUACAACUGA	0.408
AUAUAUAUAUUUGGCAACUUGUAUUUGUGUGUAUAUAUAUAUAUAUAUGUUUAUGUAUAUAUGUGAUUCUGAUAAAAUAGACAUUGCUAUUCUGUUUUUUAUAUGUAAAA	1.14
UACCUCUGACAUCAUUCUUUUUUUCUGAAAGGGGUAAUAAUUCUAGUUUUGAUAGACUCUGAGGAUCAUAUGAACAGGACAUUUUUCAUUUGUGAAUUUAAUGCUAUCUU	0.58
UAACUGGUAAGGCUUAUUGUACAGUAUAUUGUCAGUAUUCUUCUGGUUCAGCAUACCUUAUAGUUCGUAUAUAACCUGUAUUAAUUGUAUAGAUUGUGCAUUUAAAGCUG	0.419
GCUCCUCCAGCUGUAUCUGCACCUGCCUCUCUGUCCUGGCCAGGGGUGGACAACUGGGGUCCCCCAAAACUCAGUCCUGGCACCUCAACUGUGACAAUCAGCAAAGCCCC	0.34
GUAUUCUGCAUAUGGGCUGGCUUUGGUGAAGCUGAUGACUGGACUUCUAAGAACCGUUUUCCCAAAUGGGUUCCCAUAUUCAUGCACCCAAAGCAAUGGUCCCCAAGCAC	0.774
CUAGUUCCCUUUGGUGAAGGGAAAAAUGAUGAUUUUGCAAGACCUAGAUUUUGGCUUGGUUUCUUGCCUCCUUUUUUGGCAGCCUUCAUCUUCUCAUCUCCCAAACCCCC	0.362

Sample 6
Target: Fragile X messenger ribonucleoprotein 1, C-terminal low-complexity region (Fmr1, Mus musculus, UniProt P35922)
Technique: RNA Bind-n-Seq
Form: RNA
Sample: in vitro
Tested at: 200 nM
Notes: whole 134-nt RNA, ends assumed
Together with: 150 mM LiCl
Reference: input library
Reading: higher = stronger binding
Each molecule: 7-deaza-guanosine replaces G
Shared flanks, not repeated: GGGAGUUCUACAGUCCGACGAUC … UGGAAUUCUCGGGUGUCAAGG
Sequence	log2 enrichment
CACAGACAACACGCACCCACACAGACACAAAAGGAAGGGGUUGGGAUGGGGACAGGGUGCACAGCAGGGCGGGGUAGGACCCCAGCCCCU	0.102
CCUGUGCUACACAUCGUAUGUACCGAAUCGGCCCCCCCGGCCCCCCCGGGGCCCCCCCGGGAAAGUAUUAUGUUACGCCGUUCGGAUCUG	1.2
UGUCCUGUGCUUUCACAUUCUUUCUGCAUGGAGAAAGUAAUGUAUGCACAAGUGUGGAGAUUGCCCAGCACCAGCCAAUUUAUUUGAUCA	-3.42
CAAGUCCUGUGCUACACAUCGUAUGUACCGAAUCGGAAAAAGGAAAAAGGUUUGGAAAGUAUUAUGUUACGCCGUUCGGAUCUGCACUUC	-2.64
CAAGUCCUGUGCUACACAUCGUAUGUACCGAAUCGGGUUUUGGUUUUGGUUUUGGAAAGUAUUAUGUUACGCCGUUCGGAUCUGCACUUC	-1.66
CUCAAGUCCUGUGCUACACAUCGUAUGUACCGAAUCGGUGGUUUGGAAAAAGGAAAGUAUUAUGUUACGCCGUUCGGAUCUGCACUUCCA	0.0371
GUCCUGUGCUACACAUCGUAUGUACCGAAUCGGGAAAAAGGGAAAAAGGGGAAAAAGGGAAAGUAUUAUGUUACGCCGUUCGGAUCUGCA	0.604
GAUGAUUACUAUGGUUAUGAUUAUCACGACUAUCGUGGAGGCUAUGAAGAUCCCUACUACGGCUAUGAUGAUGGCUAUGCAGUAAGAGGA	-2.13
CUCAAGUCCUGUGCUACACAUCGUAUGUACCGAAUCGGAAGGGGAAGGGAAGGAAAGUAUUAUGUUACGCCGUUCGGAUCUGCACUUCCA	-0.264
UGGGAGGUGGAGUUUGUUUAUUUUUUUAGCUCAUUUCCAGGGGUGGGAAUUUUUUUUUAAUAUGUGUCAUGAAUAAAGUUGUUUUUGAAA	-0.884
GUCCUGUGCUACACAUCGUAUGUACCGAAUCGGGGCCCCCGGCCCCCGGGCCCCCGGGGAAAGUAUUAUGUUACGCCGUUCGGAUCUGCA	-2.5

A few entries again (sample 3):
Sequence	7-mer Z-score
ACGACAG	0.138
CACGCGU	-0.0681
GGCCGGA	0.363
CCCGAGA	-0.179
CCGCGUU	-0.4
AGAAGCA	0.0152
